{"data": "Assay results of several laboratories", "note": "Every numbered part comes from another study and shows a few of its results, in no order."}
{"data": "Series 1", "SMILES": "Cc1nc(Nc2ncc(C(=O)Nc3c(C)cccc3Cl)s2)cc(N2CCN(CCO)CC2)n1", "read-out": "enzyme activity", "action": "inhibitor", "concentration": "0.5 µM", "baseline": "control"}
{"target": "NLK (Homo sapiens, UniProt Q9UBE8)", "remaining activity": "27.5%"}
{"target": "STK25 (Homo sapiens, UniProt O00506)", "remaining activity": "83.8%"}
{"target": "Cyclin-dependent kinase 3, with cyclin E (CDK3, Homo sapiens, UniProt Q00526)", "remaining activity": "91.7%"}
{"target": "MARK3 (Homo sapiens, UniProt P27448)", "remaining activity": "97.8%"}
{"target": "FLT4 (Homo sapiens, UniProt P35916)", "remaining activity": "92.1%"}
{"target": "Insulin receptor (INSR, Homo sapiens, UniProt P06213)", "remaining activity": "97.2%"}
{"target": "PKN1 (Homo sapiens, UniProt Q16512)", "remaining activity": "90%"}
{"target": "AKT1 (Homo sapiens, UniProt P31749)", "remaining activity": "96.7%"}
{"target": "TAOK3 (Homo sapiens, UniProt Q9H2K8)", "remaining activity": "95.3%"}
{"target": "MATK (Homo sapiens, UniProt P42679)", "remaining activity": "79%"}
{"target": "PRKX (Homo sapiens, UniProt P51817)", "remaining activity": "105%"}
{"target": "ALK (Homo sapiens, UniProt Q9UM73)", "remaining activity": "110%"}
{"target": "HIPK1 (Homo sapiens, UniProt Q86Z02)", "remaining activity": "99.5%"}
{"target": "LIM domain kinase 1 (LIMK1, Homo sapiens, UniProt P53667)", "remaining activity": "16.7%"}
{"target": "FER (Homo sapiens, UniProt P16591)", "remaining activity": "95.9%"}
{"target": "ITK (Homo sapiens, UniProt Q08881)", "remaining activity": "103%"}
{"target": "FYN (Homo sapiens, UniProt P06241)", "remaining activity": "1.96%"}
{"target": "FGR (Homo sapiens, UniProt P09769)", "remaining activity": "1.7%"}
{"target": "CDC42BPA (Homo sapiens, UniProt Q5VT25)", "remaining activity": "99.2%"}
{"target": "PASK (Homo sapiens, UniProt Q96RG2)", "remaining activity": "110%"}
{"data": "Series 2", "Structure (SMILES)": "C=CC(=O)N1CCC[C@@H](n2nc(-c3ccc(Oc4ccccc4)cc3)c3c(N)ncnc32)C1", "action": "inhibitor", "concentration": "1 µM"}
{"target": "SIK2 (Homo sapiens, UniProt Q9H0K1)", "read-out": "enzyme activity", "inhibition [%]": 0}
{"target": "EGFR (Homo sapiens, UniProt P00533, L858R/T790M)", "inhibition [%]": 94}
{"target": "PRKD2 (Homo sapiens, UniProt Q9BZL6)", "inhibition [%]": 13}
{"target": "ABL2 (Homo sapiens, UniProt P42684)", "read-out": "enzyme activity", "inhibition [%]": 59}
{"target": "MELK (Homo sapiens, UniProt Q14680)", "inhibition [%]": 33}
{"target": "TEC (Homo sapiens, UniProt P42680)", "read-out": "enzyme activity", "inhibition [%]": 76}
{"target": "STK38 (Homo sapiens, UniProt Q15208)", "read-out": "enzyme activity", "inhibition [%]": 33}
{"target": "CDK4 (Homo sapiens, UniProt P11802)", "inhibition [%]": 3}
{"target": "EPHB2 (Homo sapiens, UniProt P29323)", "read-out": "enzyme activity", "inhibition [%]": 12}
{"data": "Series 3", "SMILES": "CN1CCN(C(=O)c2ccc(NC(=O)Nc3ccc(N(C)c4ccnc(Nc5ccc(CS(C)(=O)=O)cc5)n4)cc3)cc2)CC1", "concentration": "1 µM"}
{"target": "EPHA6 (Homo sapiens, UniProt Q9UF33)", "method": "competitive binding panel", "baseline": "vehicle", "remaining binding [%]": 76}
{"target": "CAMK2D (Homo sapiens, UniProt Q13557)", "method": "competitive binding panel", "baseline": "vehicle", "remaining binding [%]": 69}
{"target": "TSSK1B (Homo sapiens, UniProt Q9BXA7)", "method": "competitive binding panel", "baseline": "vehicle", "remaining binding [%]": 96}
{"target": "RIPK1 (Homo sapiens, UniProt Q13546)", "method": "competitive binding panel", "baseline": "vehicle", "remaining binding [%]": 100}
{"target": "MAP3K15 (Homo sapiens, UniProt Q6ZN16)", "method": "competitive binding panel", "baseline": "vehicle", "remaining binding [%]": 86}
{"target": "CDK13 (Homo sapiens, UniProt Q14004)", "method": "competitive binding panel", "refers to": "CDC2L5", "baseline": "vehicle", "remaining binding [%]": 13}
{"target": "MAPKAPK2 (Homo sapiens, UniProt P49137)", "method": "competitive binding panel", "baseline": "vehicle", "remaining binding [%]": 100}
{"target": "PIP5K1A (Homo sapiens, UniProt Q99755)", "method": "competitive binding panel", "baseline": "vehicle", "remaining binding [%]": 9.3}
{"target": "CRK2 (Plasmodium falciparum, UniProt P61075)", "method": "competitive binding, scanMAX", "notes": "Plasmodium falciparum PK5, 1000 nM", "remaining binding [%]": 95}
{"target": "EPHB4 (Homo sapiens, UniProt P54760)", "method": "competitive binding panel", "baseline": "vehicle", "remaining binding [%]": 85}
{"target": "DCLK2 (Homo sapiens, UniProt Q8N568)", "method": "competitive binding panel", "refers to": "DCAMKL2", "baseline": "vehicle", "remaining binding [%]": 79}
{"target": "MAP3K14 (Homo sapiens, UniProt Q99558)", "method": "competitive binding", "notes": "NIK", "remaining binding [%]": 100}
{"target": "MAP3K12 (Homo sapiens, UniProt Q12852)", "method": "competitive binding", "notes": "DLK", "remaining binding [%]": 30}
{"target": "ACVR1 (Homo sapiens, UniProt Q04771)", "method": "competitive binding panel", "baseline": "vehicle", "remaining binding [%]": 28}
{"target": "CDK9 (Homo sapiens, UniProt P50750)", "method": "competitive binding panel", "baseline": "vehicle", "remaining binding [%]": 69}
{"data": "Mixed results"}
{"SMILES": "CN(c1ccnc(CNc2nc(Nc3ccc4c(c3)CC(=O)N4)ncc2C(F)(F)F)n1)S(C)(=O)=O", "target": "PTK2B (Homo sapiens, UniProt Q14289)", "test": "target engagement in cells, BRET", "quantity": "EC50", "value": "37 µM"}
{"SMILES": "COc1ccc2c(c1)O[C@@H](c1ccc(OC)c(OC)c1)C[C@H]2NC(=O)C1(c2ccc3c(c2)OC(F)(F)O3)CC1 (single isomer, unassigned)", "target": "ABL1 (Homo sapiens, UniProt P00519, E255K)", "test": "KINOMEscan", "conditions": "1 µM, E255K mutant, phosphorylated", "how to read": "baseline: control", "quantity": "remaining binding", "value": "90%"}
